Measurements gathered from unrelated publications.
Lines come from different studies, so protocols differ. Numbers after ± are the reported error.

| Structure (SMILES) | test | test system | setting | quantity | value |
| --- | --- | --- | --- | --- | --- |
| O=C([O-])CN1CCN(CC(=O)NCCCCCNC(=O)CCC(NC(=O)NC(CCC(=O)O)C(=O)O)C(=O)O)CCN(Cc2cccc(C(=O)[O-])n2)CC1.[64Cu+2] (stereo not drawn) | radio-HPLC | PBS | 12 h, room temperature | intact complex | 88.5% |
| O=C([O-])CN1CCN(CC(=O)[O-])CCN(CC(=O)NCC2CCC(C(=O)NC(Cc3ccc4ccccc4c3)C(=O)NCCCCC(NC(=O)NC(CCC(=O)O)C(=O)O)C(=O)O)CC2)CCN(CC(=O)[O-])CC1.[44Sc+3] (stereo not drawn) | transchelation stability | – | 1 h, 37 °C, together with: EDTA 10 mM | intact complex | 97.3 ± 0.1% |
| Cc1cn(-c2ccc(-c3cc(C)c(N[C@@H](C)c4ccc(F)cc4)nn3)nc2O[11CH3])cn1 | – | male rhesus macaque, arterial plasma | intravenous, 2 mCi, 10 min | intact tracer fraction | < 10% |
| O=C(NCC1OC2CCC=CCCC2O1)c1ccc(COCCOCCOCC[18F])cc1 (stereo not drawn) | – | mouse plasma | 2 h, 37 °C | intact tracer remaining | 86 ± 1.61% |
| O=C(NCCCN(CCCCN(CCCNC(=O)c1cccc(=O)n1[O-])C(=O)c1cccc(=O)n1[O-])C(=O)c1cccc(=O)n1[O-])c1cccc(=O)n1[O-].[89Zr+4] | radio-TLC | PBS | 1 h, pH 7.4, 37 °C, together with: Ga^3+ 10-fold excess | intact complex | 98.4 ± 2.3% |
| O=C(O)CC[C@H](NC(=O)N[C@@H](CCC(=O)NCCCCCNC(=O)CN1CCNCCN(Cc2cccc(C(=O)[O-])n2)CC1)C(=O)[O-])C(=O)O.[64Cu+2] | radio-HPLC | PBS | 12 h, room temperature | intact complex | 88.7% |
| N[C@@H]1CCCC[C@H]1N.O=C1[O][Pt]2([O]C1=O)[O]C(=O)C(=O)[O]2 | – | water | 24 h, 37 °C, together with: sodium ascorbate 15-fold excess | intact complex remaining | ~80% |
| CC(=O)N([O-])CCCCCNC(=O)CCC(=O)N([O-])CCCCCNC(=O)CCC(=O)N([O-])CCCCCN.[89Zr+4] | radio-iTLC | aqueous buffer | 1 h, pH 5.5, 37 °C, EDTA challenge, together with: 100-fold excess EDTA | intact complex | 89.6 ± 0.7% |
| C[C@@H](O)[C@H](NC(=O)[C@@H]1CSSC[C@H](NC(=O)[C@@H](Cc2ccccc2)NC(=O)CN2CCN(CC(=O)O)CCN(CC(=O)O)CCN(CC(=O)O)CC2)C(=O)N[C@@H](Cc2ccc(O)cc2)C(=O)N[C@H](Cc2c[nH]c3ccccc23)C(=O)N[C@@H](CCCCN)C(=O)N[C@@H]([C@@H](C)O)C(=O)N1)C(=O)O | radio-TLC | mouse serum | 5 d, 37 °C | intact radioligand | > 95% |
| N[C@H](CSC(F)(F)[18F])C(=O)O | – | PBS | 2 h, pH 7.4, 37 °C | intact tracer | > 95% |
| O=C([O-])CN1CCN(CC(=O)[O-])CC(Cc2ccc(NC(=S)NCCOCCOCCOCCOCCOCCOCCOCCNC(=O)CCCC(=O)NCc3ccc(-c4nncnn4)cc3)cc2)N(CC(=O)[O-])CC1.[64Cu+2] (stereo not drawn) | – | human serum | 4 h, 37 °C | intact compound | 77.8 ± 3.5% |
| O=C([O-])c1cccc(CN(CCN(Cc2cn(Cc3ccccc3)nn2)Cc2cccc(C(=O)[O-])n2)Cc2cn(Cc3ccccc3)nn2)n1.[67Ga+3] | item: 67Ga | mouse serum | 2 h, 25 °C | intact radiocomplex | 52% |
